Measured values of several laboratories.
Each line is one published result; not all experiments were run side by side. “And” joins repeats or separate records; there may be more than shown. ± gives the spread as reported.

Compound | assay | system | setting | how to read | quantity | value
C[C@H](NC(=O)c1c(C(F)F)nn(C)c1Oc1cccc(C(F)(F)F)c1)c1ccc(C(=O)O)cc1 | irRECIST | human, advanced tumours | 125 mg | best overall response | complete response | 0%
O=S(=O)(NCCNC/C=C/c1ccc(Br)cc1)c1cccc2cnccc12 | embryonic development | mouse zygotes | 20 µM, 72 h post-hCG |  | two-cell embryos | 35% and 47.1% and 73.7%
COc1ccc([C@@H](O)c2cc(-c3ncnc4cc(N5CCOCC5)ccc34)c(F)cc2Cl)nn1 | RECIST version 1.1 | patients, advanced solid tumours | 200 mg twice daily, added: avelumab | reference: patients | disease control rate | 1%
CC(C)NCC(O)c1ccc(O)c(O)c1 (stereo not drawn) |  | ventricular cardiomyocytes, C57BL/6 mouse | dose not given, 0.384 s |  | sarcomere length | 1.72 µm
CN[C@@H]1COc2c(S(=O)(=O)NC(=O)Nc3c4c(cc5c3CCC5)CCC4)cnn2C1 | measured: IL-18 | human participants, whole blood ex vivo | 450 mg single dose, 72 h, IL-18, circulating, adjusted for, added: LPS/ATP | reference: baseline | inhibition | 17%
O=C(OC(C(F)(F)F)C(F)(F)F)N1CCN(Cc2cccc(Oc3ccccc3)c2)CC1 | PET blocking study | rhesus monkey, brain CB | 0.1 mg/kg, compound pretreatment, added: [18F]T-401 tracer |  | k3 | 1.18 min⁻¹
CCCS(=O)(=O)NC(=O)c1cc2ccccc2n1Cc1ccc(C2CC2)c2ccccc12 |  | male mouse, acute hyperuricaemia model, serum | oral, 2 mg/kg, 4 h |  | serum uric acid | 287 ± 98.7 µM
Cc1cc(Nc2ncc(Cl)c(Nc3ccccc3S(=O)(=O)C(C)C)n2)c(OC(C)C)cc1C1CCNCC1 |  | human | dose not given |  | duration of best response | 14.7 months
CC(C)[C@H](C(=O)Nc1ccc(C(=O)NO)cc1)c1ccccc1 | volumetric MRI | human, left posterior fossa tumour | dose not given, day 224 | reference: baseline | tumour volume change | -23.8%
CC(C)c1c(C(=O)Nc2ccccc2)c(-c2ccccc2)c(-c2ccc(F)cc2)n1CC[C@@H](O)C[C@@H](O)CC(=O)O | ELISA | cynomolgus monkey, male, plasma | 40 mg/kg or 25 mg/kg, day 86 | reference: pretreatment | plasma PCSK9 change | 297%
N#CCC1CCN(c2nc(Nc3ccc(N4CCC(O)CC4)cc3)c3c(=O)[nH]ncc3n2)CC1 | Olink multiplex | human, serum | 40 mg, day 15, unit not given | reference: baseline | osteopontin level change | -1.28
O=C(O)/C=C/c1nccc2c3ccccc3n(Cc3ccc(C4CC4)cc3)c12 |  | mouse, acute hyperuricaemia model, serum | oral, 2 mg/kg, individual animal data |  | serum uric acid | 419 µM and 468 µM and 307 µM and 378 µM
COc1cc2cc(-c3ccc(CC(=O)Nc4cc(C(C)(C)C(F)(F)F)no4)cn3)cnc2cc1OC | RECIST v1.1 | RET-altered advanced solid tumour patients | oral, 75 mg once daily, phase I |  | objective response rate | 23%
CN(C)C(=O)c1cc2cnc(Nc3ccc(N4CCNCC4)cn3)nc2n1C1CCCC1 | RNA-seq GSEA, measured: HALLMARK_DNA_REPAIR | MB002 tumour | concentration not given, in vivo | reference: vehicle, direction not given | normalized enrichment score | 1.81
Cc1c(Cl)c(C)[n+]([O-])c(Cl)c1-c1noc(-c2cc(O)c(O)c([N+](=O)[O-])c2)n1 | sulfation, substrate | human intestinal S9 |  |  | Vmax | 1.36 ± 0.039 pmol/min/mg protein
N#Cc1ccn2c(-c3ccncc3)c(-c3ccc(F)cc3)nc2c1 | kinase binding, competitor, MIB/MS competition, measured: KSP1 | Candida albicans cell lysate | 100 nM | reference: DMSO | log2 fold change | -0.0594
O=P(O)(O)C(Cl)(Cl)P(=O)(O)O | astrogliosis, immunostaining | Mus musculus, sham-operated, hippocampal fissure | dose not given, day 1 | reference: total area | GFAP-positive area | 3.57%
O=C1Nc2cc3[nH]nc(-c4ccncc4)c3cc2CN1Cc1ccccc1 | RECIST v1.1 | human, relapsed or refractory advanced solid tumours | intravenous, 4.8 mg/kg |  | partial response, best response | 0%
C[C@H]1C[C@H]2CSC(N)=N[C@@]2(c2nc(NC(=O)c3ccc(OC(F)F)cn3)cs2)CO1 |  | healthy adults, fed, plasma | oral, 200 mg single dose, 24 h | reference: baseline, placebo-adjusted | plasma Aβx-40 change | -62.9%
O=C(NS(=O)(=O)c1ccc(Cl)s1)c1cc2ccccc2n1Cc1ccc(Br)c2ccccc12 |  | mouse, acute hyperuricemia model | dose not given |  | serum uric acid | 404 µM and 303 µM and 410 µM and 339 µM and 440 µM and 392 µM and 505 µM
COc1ccccc1OCC(O)CN1CCN(CC(=O)Nc2c(C)cccc2C)CC1 (stereo not drawn) | barrier function (TEER) | human ileal GI microtissue EpiIntestinal-FT |  |  | IC15 | > 100 µM
OC[C@H]1OC(O)[C@H]([18F])[C@@H](O)[C@@H]1O (stereo partly drawn) | PET | NSCLC and melanoma patients, primary tumours | dose not given, median of five patients |  | SUVmax | 7.7
NC(=O)c1cnc2[nH]ccc2c1N[C@@H]1[C@@H]2CC3C[C@H]1C[C@@](O)(C3)C2 | flow cytometry, measured: CD8+ effector T cells | Japanese healthy subjects, peripheral blood | oral, 100 mg twice daily, day 4 |  | change from baseline | 0.57%
N#Cc1ccc2c(c1)[C@H]1CCCN(C(=O)c3ccc4[nH]cnc4c3)[C@H]1C2 | measured: androstenedione | human male, Phase II trial | oral, 240 mg once daily, HPA axis, mean |  | change from baseline | 3.82 nmol/L

Compound | assay | system | setting | how to read | quantity | value
CC1(C)OB(c2ccccc2/C=N/NC(=O)c2ccncc2)OC1(C)C | LC-UV | DMEM cell medium | 100 µM, 37 °C, added: H2O2 200 µM |  | activation rate constant | 0.0934 ± 0.0026 h⁻¹
CC(C)n1c(C2CCNCC2)nc2c([N+](=O)[O-])c(Br)c(Br)cc21 |  | IDH-mutated AML patients, bone marrow | all dose levels |  | minimum blast reduction | -4%
Cc1n[nH]c2ccc(-c3cc(OC[C@@H](N)Cc4ccccc4)cnc3-c3ccoc3)cc12 | kinase binding, competitor, MIB/MS competition, measured: CMK2 | Candida albicans cell lysate | 1 µM | reference: DMSO | log2 fold change | 0.585
C=CCn1c(=O)c2cnc(Nc3ccc(N4CCN(C)CC4)cc3)nc2n1-c1ccc2c(n1)[C@@](O)(CC)CC2 |  | NCI-H1755, NOD/SCID mice, xenograft | oral, 80 mg/kg once daily, day 28 | reference: vehicle | tumour volume difference | 125 ± 8.3 mm3
CC(=O)Oc1cc2c(s1)CCN(C(C(=O)C1CC1)c1ccccc1F)C2 (stereo not drawn) | platelet aggregation, light transmission aggregometry | human patients, platelet-rich plasma | dose not given, 1 h, inhibition threshold 90%, added: TRAP 5 µM |  | patients with inhibition above threshold | 0%
Cc1cc([C@H]2C[C@H]3[C@@H](CF)SC(N)=N[C@@]3(c3ccc(F)cc3F)CO2)on1 | measured: Aβx-40 | wild-type mouse, brain | subcutaneous, 30 mg/kg, 9 h |  | brain Aβ40 level | 2.56 ng/g
OC(CCN1CCCCC1)(c1ccccc1)C1CC2C=CC1C2 (stereo not drawn) | resting-state EEG | healthy elderly humans | oral, 2 mg, eyes closed, LS mean |  | EEG Beta2-power Pz-O1 | 1.1 µV²
O=C(O)CNC(=O)Cc1ccccc1 |  | ventricular cardiomyocytes, C57BL/6 mouse | dose not given, 0.784 s |  | sarcomere length | 1.71 µm
Cc1nn(-c2nc3c(F)cc(F)cc3s2)c(O)c1C(c1ccc(C(F)(F)F)cc1)c1c(C)nn(-c2nc3c(F)cc(F)cc3s2)c1O |  | mouse, cerulein-induced acute pancreatitis, serum | 25 mg/kg |  | serum amylase activity | 103 mOD/min and 98.2 mOD/min and 191 mOD/min and 93.6 mOD/min and 184 mOD/min and 92.5 mOD/min
CC1=NN(c2ccccc2)C(=O)C1 |  | Rattus norvegicus, MCAO/R model | concentration not given, day 21 post-stroke | direction not given | mNSS score | 5.17
Cc1nc(-c2ccc(OCC(C)C)c(C#N)c2)sc1C(=O)O |  | mouse, chronic hyperuricaemia model, serum | dose not given |  | serum creatinine | 15.2 µM and 35.6 µM and 32.6 µM and 39.8 µM and 47.4 µM
CC(=O)NCC(=O)NCC(=O)N[C@H](C(=O)N[C@@H](Cc1ccc(O)cc1)C(=O)N[C@@H](CO)C(=O)N[C@H]1CSSC[C@@H](C(=O)N[C@@H](CCCNC(=N)N)C(=O)N2CCC[C@H]2C(=O)N[C@@H](CCC(N)=O)C(=O)N[C@@H](CCCNC(=N)N)C(=O)NCC(=O)NCCC(=O)N[C@@H](CCCCNC(=O)CN(CC(=O)NCCCC[C@H](NC(=O)CCNC(=O)CNC(=O)[C@H](CCCNC(=N)N)NC(=O)[C@H](CCC(N)=O)NC(=O)[C@@H]2CCCN2C(=O)[C@H](CCCNC(=N)N)NC(=O)[C@@H]2CSSC[C@H](NC(=O)[C@H](CO)NC(=O)[C@H](Cc3ccc(O)cc3)NC(=O)[C@@H](NC(=O)CNC(=O)CNC(C)=O)[C@@H](C)O)C(=O)N[C@@H](Cc3c[nH]cn3)C(=O)N[C@@H](Cc3ccccc3)C(=O)NCC(=O)N[C@@H](C)C(=O)N[C@@H](CC(C)C)C(=O)N[C@@H]([C@@H](C)O)C(=O)N[C@@H](Cc3c[nH]c4ccccc34)C(=O)N[C@@H](C(C)C)C(=O)N2)C(N)=O)C(=O)CCN)C(N)=O)NC(=O)[C@H](C(C)C)NC(=O)[C@H](Cc2c[nH]c3ccccc23)NC(=O)[C@H]([C@@H](C)O)NC(=O)[C@H](CC(C)C)NC(=O)[C@H](C)NC(=O)CNC(=O)[C@H](Cc2ccccc2)NC(=O)[C@H](Cc2c[nH]cn2)NC1=O)[C@@H](C)O |  | healthy BALB/c mice | subcutaneous, 0.08 mg/kg, 14 d, single dose |  | haemoglobin | 166 g/L
CCN1CCN(Cc2ccc(Nc3ncc(F)c(-c4cc(F)c5nc6n(c5c4)[C@H](C)CCC6)n3)nc2)CC1 |  | human advanced solid tumours | 200 mg, phase Ia monotherapy RECIST 1.1 |  | complete response | 0%
[Cl-].[Cl-].[Pt+2].[Ru+2].c1ccc(-c2nc3cc4ccccc4cc3nc2-c2ccccn2)nc1.c1cnc2c(c1)ccc1cccnc12.c1cnc2c(c1)ccc1cccnc12 | chloride substitution, UV-vis kinetics | aqueous buffer | pH 7.2, 35 °C, second substitution step, added: thiourea |  | activation free energy | 19.4 ± 0.717 kcal/mol
NCC(=O)Nc1cncc(-c2nn3c(=O)cc(N4CCNCC4)nc3s2)c1 | ADP-induced platelet aggregation, light transmission aggregometry | human stable CAD patients on aspirin, platelets ex vivo | 0.05 mg/kg, 5 min post dose, added: 20 µM ADP | reference: placebo difference | inhibition of platelet aggregation | 13.2%
OC[C@H]1O[C@@H](c2ccc(Cl)c(Cc3ccc(O[C@H]4CCOC4)cc3)c2)[C@H](O)[C@@H](O)[C@@H]1O |  | Japanese type 1 diabetes patients | 25 mg, day 28, 672 h | reference: baseline | systolic blood pressure change | 3.4 mmHg
Cc1cc(C(C)(C)C)c(O)c(C(C)(C)C)c1 | Fe3+ reduction, ferricyanide reduction |  | 30 µg/mL |  | absorbance | 0.634 ± 0.049
c1ccc(-c2cc(-c3ccccc3)n(Cn3ccnc3)n2)cc1 |  | rat, STZ-nicotinamide diabetic | 150 mg/kg, 360 h, full-thickness excision wound |  | wound size | 8.1 mm
C[C@H](Oc1ccc(Br)cc1-c1ccon1)C(=O)O | muscle velocity recovery cycles | human, tibialis anterior muscle | 600 mg once daily, multiple doses, multiple ascending dose | reference: placebo | latency | 0.231 ms
CCOc1cc(/C=C2\CN(C(C)=O)CC3=C2OC(N)=C(C#N)C3c2ccc(O)c(OCC)c2)ccc1O (stereo not drawn) |  | rats, DMBA-induced mammary tumours | dose not given, day 42 |  | tumour volume | 0.056 ± 0.007 cm3
C[C@@H](NC(=O)N1C(=O)[C@H](Cc2ccnc(N)c2)[C@H]1C(=O)O)C1CCCCC1 |  | human | iv infusion, 1.5 mg/kg/h, 24 h | reference: baseline | time to ACT Emax | 108 h
N#Cc1ccc2c(c1)[C@H]1CCCN(C(=O)c3ccc4[nH]cnc4c3)[C@H]1C2 |  | T2DM patients with overweight or obesity, plasma | oral, 10 mg, day 15 (360 h), multiple dosing, mean |  | plasma 1,5-anhydroglucitol | 16.5 µg/mL
[Cl-].[Cl-].[Pt+2].[Ru+2].c1ccc(-c2nc3ccccc3nc2-c2ccccn2)nc1.c1cnc2c(c1)ccc1cccnc12.c1cnc2c(c1)ccc1cccnc12 |  |  | concentration not given, first substitution step, added: thiourea |  | activation enthalpy | 6.45 ± 0.239 kcal/mol
COc1ccc(S(=O)(=O)NC(=O)c2cc3ccccc3n2Cc2ccc(Br)c3ccccc23)cc1 |  | mouse, acute hyperuricemia model | dose not given |  | serum uric acid | 1190 µM

Repeated from above:
Compound | assay | system | setting | how to read | quantity | value
N#CCC1CCN(c2nc(Nc3ccc(N4CCC(O)CC4)cc3)c3c(=O)[nH]ncc3n2)CC1 | Olink multiplex | human, serum | 40 mg, day 15, unit not given | reference: baseline | osteopontin level change | -1.28
O=C(O)/C=C/c1nccc2c3ccccc3n(Cc3ccc(C4CC4)cc3)c12 |  | mouse, acute hyperuricaemia model, serum | oral, 2 mg/kg, individual animal data |  | serum uric acid | 419 µM and 468 µM and 307 µM and 378 µM
COc1cc2cc(-c3ccc(CC(=O)Nc4cc(C(C)(C)C(F)(F)F)no4)cn3)cnc2cc1OC | RECIST v1.1 | RET-altered advanced solid tumour patients | oral, 75 mg once daily, phase I |  | objective response rate | 23%
CN(C)C(=O)c1cc2cnc(Nc3ccc(N4CCNCC4)cn3)nc2n1C1CCCC1 | RNA-seq GSEA, measured: HALLMARK_DNA_REPAIR | MB002 tumour | concentration not given, in vivo | reference: vehicle, direction not given | normalized enrichment score | 1.81
Cc1c(Cl)c(C)[n+]([O-])c(Cl)c1-c1noc(-c2cc(O)c(O)c([N+](=O)[O-])c2)n1 | sulfation, substrate | human intestinal S9 |  |  | Vmax | 1.36 ± 0.039 pmol/min/mg protein
N#Cc1ccn2c(-c3ccncc3)c(-c3ccc(F)cc3)nc2c1 | kinase binding, competitor, MIB/MS competition, measured: KSP1 | Candida albicans cell lysate | 100 nM | reference: DMSO | log2 fold change | -0.0594
O=P(O)(O)C(Cl)(Cl)P(=O)(O)O | astrogliosis, immunostaining | Mus musculus, sham-operated, hippocampal fissure | dose not given, day 1 | reference: total area | GFAP-positive area | 3.57%
